Measurements pooled from the literature.
Compare with care: the assays were run in different laboratories. Numbers after ± are the reported error.

| Structure (SMILES) | test | system | conditions | how to read | quantity | result |
| --- | --- | --- | --- | --- | --- | --- |
| Cc1cc(-c2ccc3ccccc3c2)nnc1NCCN1CCN(C)CC1 | metabolic stability | human, liver microsomes | 1 h |  | compound remaining | 87.7% |
| CC(=O)NCCCC[C@@H]1NC(=O)[C@H](Cc2c[nH]c3c(C)cccc23)NC(=O)[C@H]([C@@H](C)O)NC(=O)[C@H](CC(N)=O)NC(=O)[C@@H](NC(C)=O)C(C)(C)SSC(C)(C)[C@@H](C(=O)N[C@@H](Cc2ccc(OCCN)cc2)C(=O)N[C@@H](Cc2ccc3ccccc3c2)C(=O)NC2(C(=O)N[C@@H](CCC(=O)O)C(=O)N[C@@H](CC(N)=O)C(=O)N[C@@H](Cc3cccnc3)C(=O)N(C)CC(N)=O)CCOCC2)NC1=O | equilibrium dialysis | rabbit, plasma | 0.01 µM |  | plasma protein binding | 70.3 ± 1.8% |
| CC(C)[C@H](NC(=O)[C@H](Cc1c[nH]c2ccccc12)NC(=O)[C@H](CCCNC(=N)N)NC(=O)[C@H](CCCNC(=N)N)NC(=O)[C@@H](NC(=O)[C@@H](NC(=O)[C@H](CCCNC(=N)N)NC(=O)[C@@H](NC(=O)[C@@H](NC(=O)[C@H](CCCNC(=N)N)NC(=O)[C@H](CCCNC(=N)N)NC(=O)[C@@H](NC(=O)[C@H](Cc1c[nH]c2ccccc12)NC(=O)[C@H](CCCNC(=N)N)NC(=O)[C@H](CCCNC(=N)N)NC(=O)[C@@H](NC(=O)[C@H](CCCNC(=N)N)NC(=O)[C@H](CCCNC(=N)N)NC(=O)[C@@H](NC(=O)[C@H](Cc1c[nH]c2ccccc12)NC(=O)[C@H](CCCNC(=N)N)NC(=O)[C@@H](N)CCCNC(=N)N)C(C)C)C(C)C)C(C)C)C(C)C)C(C)C)C(C)C)C(C)C)C(=O)N[C@@H](CCCNC(=N)N)C(=O)N[C@@H](CCCNC(=N)N)C(=O)O |  | CD-1 mice |  | baseline: dose | dose in liver | 7.2 ± 5.2% |
| CSCC[C@H](N)C(=O)N[C@@H](C)C(=O)N[C@@H](CCCNC(=N)N)C(=O)N[C@@H](CCCNC(=N)N)C(=O)N[C@@H](CC(=O)O)C(=O)N[C@@H](CCCCN)C(=O)N[C@H](C(=O)N[C@@H](CC(=O)O)C(=O)N[C@@H](Cc1ccccc1)C(=O)N[C@@H](C)C(=O)N[C@@H](CCCNC(=N)N)C(=O)N[C@@H](CCCNC(=N)N)C(=O)N[C@@H](CCCNC(=N)N)C(=O)N[C@@H](CCCNC(=N)N)C(=O)NCCCCCC(=O)NCCCCC(NC(=O)CCCCCNC(=O)[C@H](CCCNC(=N)N)NC(=O)[C@H](CCCNC(=N)N)NC(=O)[C@H](CCCNC(=N)N)NC(=O)[C@H](CCCNC(=N)N)NC(=O)[C@H](C)NC(=O)[C@H](Cc1ccccc1)NC(=O)[C@H](CC(=O)O)NC(=O)[C@@H](NC(=O)[C@H](CCCCN)NC(=O)[C@H](CC(=O)O)NC(=O)[C@H](CCCNC(=N)N)NC(=O)[C@H](CCCNC(=N)N)NC(=O)[C@H](C)NC(=O)[C@@H](N)CCSC)[C@@H](C)O)C(=O)NCCCCC(NC(=O)C(CCCCNC(=O)CCCCCNC(=O)[C@H](CCCNC(=N)N)NC(=O)[C@H](CCCNC(=N)N)NC(=O)[C@H](CCCNC(=N)N)NC(=O)[C@H](CCCNC(=N)N)NC(=O)[C@H](C)NC(=O)[C@H](Cc1ccccc1)NC(=O)[C@H](CC(=O)O)NC(=O)[C@@H](NC(=O)[C@H](CCCCN)NC(=O)[C@H](CC(=O)O)NC(=O)[C@H](CCCNC(=N)N)NC(=O)[C@H](CCCNC(=N)N)NC(=O)[C@H](C)NC(=O)[C@@H](N)CCSC)[C@@H](C)O)NC(=O)CCCCCNC(=O)[C@H](CCCNC(=N)N)NC(=O)[C@H](CCCNC(=N)N)NC(=O)[C@H](CCCNC(=N)N)NC(=O)[C@H](CCCNC(=N)N)NC(=O)[C@H](C)NC(=O)[C@H](Cc1ccccc1)NC(=O)[C@H](CC(=O)O)NC(=O)[C@@H](NC(=O)[C@H](CCCCN)NC(=O)[C@H](CC(=O)O)NC(=O)[C@H](CCCNC(=N)N)NC(=O)[C@H](CCCNC(=N)N)NC(=O)[C@H](C)NC(=O)[C@@H](N)CCSC)[C@@H](C)O)C(N)=O)[C@@H](C)O (stereo partly shown) |  | C57BL/6 mouse female, colon | dose not given, 3 h | baseline: total | mean tissue distribution | 1.79% |
| CC(CCC(=O)NCC(=O)O)C1CCC2C3CCC4CC(OC5OC(C(=O)O)C(O)C(O)C5O)CCC4(C)C3CC(O)C12C (stereo not shown) |  | human women | dose not given, SLCO1B1 *5/*14 |  | plasma concentration | 71.4 ng/mL |
| CC[C@H](C)[C@H](NC(=O)[C@H](CCCCN)NC(=O)CNC(=O)[C@H](CC(C)C)NC(=O)[C@H](Cc1ccccc1)NC(=O)[C@H](CCCCN)NC(=O)[C@H](CO)NC(=O)[C@H](Cc1ccccc1)NC(=O)[C@H](Cc1c[nH]c2ccccc12)NC(=O)[C@H](CCC(N)=O)NC(=O)[C@@H](NC(=O)[C@H](Cc1ccccc1)NC(=O)CCCCCNC(=O)CN1CCN(CC(=O)O)CCN(CC(=O)O)CCN(CC(=O)O)CC1)C(C)C)C(=O)N[C@@H](CCC(=O)O)C(=O)N1CCC[C@H]1C(=O)N[C@@H](CC(=O)O)C(=O)N[C@H](C(=O)N[C@@H](CO)C(=O)N[C@@H](CCC(N)=O)C(=O)N[C@H](C(=O)N[C@@H](CCC(N)=O)C(=O)N[C@@H](CC(=O)O)C(=O)N1CCC[C@H]1C(=O)N[C@@H](CC(N)=O)C(=O)N[C@@H](CC(=O)O)C(=O)N[C@@H](CCC(N)=O)C(=O)N[C@@H](Cc1ccc(O)cc1)C(=O)N[C@@H](CCC(=O)O)C(=O)N1CCC[C@H]1C(=O)N[C@@H](Cc1ccccc1)C(=O)O)C(C)C)C(C)C [copper-64 labelled] | dynamic PET | mouse, CT26 tumour, checkpoint inhibitor-treated, tumour | intravenous, 100 µCi/mouse, 2220 s |  | SUVmean | 4.98 SUV |
| C#Cc1c(F)ccc2cc(O)cc(-c3ncc4c(N5CC6CCC(C5)N6C(=O)OC(C)OC(=O)c5cccnc5)nc(OC[C@@]56CCCN5C[C@H](F)C6)nc4c3F)c12 (stereo partly shown) | item: prodrug | mouse whole blood | 1 µM |  | t1/2 | 25.7 min |
| COc1ccc(CNc2ccc3c(c2)S(=O)(=O)C=C3)cc1 |  | male C57BL/6 mice, blood | intraperitoneal, 5 mg/kg, day 8, group average |  | plateletcrit | 7.04 mL/L |
| NC1CCN(C(=O)Oc2ccc(C3CCCC4(C3)OOC3(O4)C4CC5CC(C4)CC3C5)cc2)CC1 (racemic) | shake flask | PBS | pH 7.4 |  | logD | 4.54 |
| C/C(=N\OCCCN1CCCCC1)c1ccc(C(F)(F)F)cc1 |  | rhesus monkey | dose not given, after dosing |  | QT interval | 160 ms |
| CN1Cc2cc(Cl)ccc2-n2c(nnc2C2CCN(c3cccc([18F])n3)CC2)C1 | PET two-tissue compartment model | rhesus monkey, hippocampus | intravenous, dose not given, 90 min scan, baseline scan |  | total volume of distribution | 1.11 ± 0.29 mL/cm3 |
| O=C1NC2(CC2)COc2ncc(F)cc2[C@H]2COCCN2c2ccn3ncc1c3n2 |  | Sprague-Dawley rat, male, serum | oral, 5 mg/kg/day, end of recovery, 4-week subacute toxicity |  | serum LDH activity | 951 ± 156 U/L |
| CCCCCCCCCCCCCCCC(=O)N[C@@H](CCC(=O)NCCOCCOCCC(=O)NCCOCCOCCC(=O)NCCCC[C@H](NC(=O)[C@H](CC(=O)O)NC(=O)[C@H](CC(C)C)NC(=O)[C@H](Cc1ccc(O)cc1)NC(=O)[C@H](CCCCN)NC(=O)[C@H](CO)NC(=O)[C@H](Cc1ccc(O)cc1)NC(=O)[C@H](CC(=O)O)NC(=O)[C@H](CO)NC(=O)[C@@H](NC(=O)[C@H](Cc1ccccc1)NC(=O)[C@@H](NC(=O)CNC(=O)[C@H](CCC(N)=O)NC(=O)[C@@H](CO)NC(=O)[C@@H](N)Cc1c[nH]cn1)[C@@H](C)O)[C@@H](C)O)C(=O)N[C@@H](CCCNC(=N)N)C(=O)N[C@@H](CCCNC(=N)N)C(=O)N[C@@H](C)C(=O)N[C@@H](CCC(N)=O)C(=O)N[C@@H](CC(=O)O)C(=O)N[C@@H](Cc1ccccc1)C(=O)N[C@H](C(=O)N[C@@H](CCC(N)=O)C(=O)N[C@@H](Cc1c[nH]c2ccccc12)C(=O)N[C@@H](CC(C)C)C(=O)N[C@@H](CC(C)C)C(=O)N[C@@H](CC(N)=O)C(=O)N[C@H](C(=O)NCC(=O)NCC(=O)N1CCC[C@H]1C(=O)N[C@@H](CO)C(=O)N[C@@H](CO)C(=O)NCC(=O)N[C@@H](C)C(=O)N1CCC[C@H]1C(=O)N1CCC[C@H]1C(=O)N1CCC[C@H]1C(=O)N[C@@H](CO)C(N)=O)[C@@H](C)O)C(C)C)C(=O)O |  | rhesus monkey, female, plasma | subcutaneous, 60 µg/kg, day 1, toxicokinetics, mean |  | AUC(0-t) | 565 ng·h/mL |

Repeated from above:
| Structure (SMILES) | test | system | conditions | how to read | quantity | result |
| --- | --- | --- | --- | --- | --- | --- |
| C#Cc1c(F)ccc2cc(O)cc(-c3ncc4c(N5CC6CCC(C5)N6C(=O)OC(C)OC(=O)c5cccnc5)nc(OC[C@@]56CCCN5C[C@H](F)C6)nc4c3F)c12 (stereo partly shown) | item: prodrug | mouse whole blood | 1 µM |  | t1/2 | 25.7 min |
| COc1ccc(CNc2ccc3c(c2)S(=O)(=O)C=C3)cc1 |  | male C57BL/6 mice, blood | intraperitoneal, 5 mg/kg, day 8, group average |  | plateletcrit | 7.04 mL/L |
